Results of several laboratories.
Compare with care: the assays were run in different laboratories. Several values in a cell are separate wells, animals, samples, runs or records. ± marks the error that the study gave.
PLCG2 residues 1-1195: 1-phosphatidylinositol 4,5-bisphosphate phosphodiesterase gamma-2, residues 1-1195 (PLCG2, Homo sapiens, UniProt P16885)
MTNR1A: Melatonin receptor type 1A (MTNR1A, Homo sapiens, UniProt P48039)

SMILES | target | assay | system | setting | EC50
COc1ccc2c(c1)CC[C@@H]1[C@@H]2CC[C@]2(C)[C@@H](NCCCCCCN3C(=O)C=CC3=O)CC[C@@H]12 | PLCG2 residues 1-1195 | enzyme activity, activator | lipid vesicles | 15 min preincubation, added: XY-69 substrate 0.5 µM | 2.4 µM
COc1cc(I)c(Cc2cc(OC)c(OC)cc2CC(=O)OC(C)(C)C)cc1OC | MTNR1A | β-arrestin recruitment, agonist | – | – | 1.78 µM
CCCC[C@H](NC(=O)[C@H](Cc1ccccc1)NC(=O)[C@H](Cc1c[nH]cn1)NC(=O)CCNC(=O)[C@@H](NC(=O)[C@H](C)NC(=O)[C@H](Cc1c[nH]c2ccccc12)NC(=O)[C@H](CCC(N)=O)NC(=O)[C@H](N)Cc1ccccc1)C(C)C)C(N)=O | Gastrin-releasing peptide receptor (GRPR, Homo sapiens, UniProt P30550) | calcium signal, agonist | – | – | 0.0151 µM
COc1ccc2[nH]c(-c3cccc4ccccc34)c(CCNC(=O)CI)c2n1 | MTNR1A | β-arrestin recruitment, agonist | – | – | 4.79 µM
O=C(Nn1c(-c2cccc(Cl)c2)nc2ccccc2c1=O)c1ccccc1F | TRPM channel TRPM_PZQ (Schistosoma mansoni, UniProt A0A5K4F0X5) | whole-cell inward current, activator, automated patch clamp | HEK293 | – | 2.2 ± 0.34 µM
O=C(O)c1ccccc1OCc1ccccc1Br | Ras-related protein Rab-2A (Canis lupus familiaris, UniProt P61105) | GTP binding, flow cytometry bead | – | EDTA buffer, added: 100 nM BODIPY-GTP | 0.251 µM
O=C(NC[C@@H](Cc1ccc(F)cc1)N1CCC(O)(C(F)(F)F)CC1)C1(c2ccc(Cl)cc2)CCCC1 | Transient receptor potential cation channel subfamily A member 1 (TRPA1, Homo sapiens, UniProt O75762, L881I) | – | – | – | 9.3 µM
O=C(O)Cc1ccccc1Nc1c(Cl)cccc1Cl | PLCG2 residues 1-1195 | enzyme activity, activator | lipid vesicles | 15 min preincubation, added: XY-69 substrate 0.5 µM | 51 µM
COc1ccc(C(=O)c2c(C(=O)NCCCN(C)C)oc3ccc(Cl)cc3c2=O)cc1OC | Growth hormone secretagogue receptor type 1 (GHSR, Homo sapiens, UniProt Q92847, E197A) | Gαq dissociation, TRUPATH BRET | HEK293T | – | 0.525 µM
CC(C)(C(=O)N1CCC(Nc2nc3c(c(=O)[nH]2)CCCC3)CC1)c1ccc(Cl)cc1 | MRGPRD (Homo sapiens, UniProt Q8TDS7) | β-arrestin recruitment, agonist | – | – | 0.0517 µM
CC(C)Oc1cc(Cl)ccc1CNc1cc(-c2ccccc2)nc2ncnn12 | G-protein coupled receptor 3 (GPR3, Homo sapiens, UniProt P46089, V196W) | cAMP level, agonist, GloSensor | – | receptor V196W mutant | 3.63 µM and 3.31 µM and 2.14 µM and 4.9 µM
CC1=NC(C)C(C)S1 (stereo not drawn) | uncharacterized protein (Mus musculus, UniProt A0A140T8K4) | cAMP, agonist | HEK293 transfected with uncharacterized protein | – | 53.6 ± 3.96 µM
Nc1ncnc2c1ncn2[C@@H]1O[C@H](COP(=O)(O)OP(=O)(O)OC[C@H]2OC(O)[C@H](O)[C@@H]2O)[C@@H](O)[C@H]1OP(=O)(O)O (stereo partly drawn) | TRPM2 (Nematostella vectensis, UniProt A7T1N0, T702A) | agonist | – | – | 0.24 ± 0.02 µM
CCOC(=O)Nc1ccc(NCc2ccc(F)cc2)nc1N | PLCG2 residues 1-1195 | enzyme activity, activator | lipid vesicles | 15 min preincubation, added: XY-69 substrate 0.5 µM | 14 µM
COc1cc(C2C(NC(=O)c3ccc(NC(=O)OC(C)(C)C)cc3)(C(=O)O)C(c3ccc(OC(=O)c4cccs4)c(OC)c3)C2(NC(=O)c2ccc(NC(=O)OC(C)(C)C)cc2)C(=O)O)ccc1OC(=O)c1cccs1 (stereo not drawn) | Glucagon-like peptide 1 receptor (GLP1R, Homo sapiens, UniProt P43220, L144A) | cAMP, agonist | – | – | 0.166 µM
CC(=O)N[C@@H]1[C@@H](O[C@@H]2O[C@H](C(=O)O)[C@@H](O[C@@H]3O[C@H](COS(=O)(=O)O)[C@@H](OS(=O)(=O)O)[C@H](O[C@@H]4O[C@H](C(=O)O)[C@@H](O[C@@H]5O[C@H](COS(=O)(=O)O)[C@@H](OS(=O)(=O)O)[C@H](O[C@@H]6O[C@H](C(=O)O)[C@@H](OS(=O)(=O)O)[C@H](OS(=O)(=O)O)[C@H]6OS(=O)(=O)O)[C@H]5NC(C)=O)[C@H](OS(=O)(=O)O)[C@H]4OS(=O)(=O)O)[C@H]3NC(C)=O)[C@H](OS(=O)(=O)O)[C@H]2OS(=O)(=O)O)[C@H](OS(=O)(=O)O)[C@@H](COS(=O)(=O)O)O[C@H]1N=[N+]=[N-] | Fibroblast growth factor 2 (Homo sapiens, UniProt P09038) | fluorescence polarization competition | – | Fibroblast growth factor 2 23 nM, added: TAMRA-labelled probe | 0.045 ± 0.009 µM
CC[C@H]([C@@H](C)c1ccc(O)cc1)[C@@H](CC)c1ccc(O)cc1 | Estrogen receptor (ESR1, Homo sapiens, UniProt P03372) | reporter gene, luciferase reporter (3xERE) | 293T | 24 h | 0.0146 µM
Cc1c(C)c2ccc[n+]3c2c2c1ccc[n+]2[Ir-3]312([c]3ccccc3-c3ccc4ccc(Cl)cc4[n+]31)[c]1ccccc1-c1ccc3ccc(Cl)cc3[n+]12.F[P-](F)(F)(F)(F)F | Cyclin-dependent kinase 9, with cyclin T1 (CDK9, Homo sapiens, UniProt P50750) | enzyme activity | – | – | 0.355 ± 0.0118 µM
CC[C@H](C)[C@H]1C(=O)N(Cc2cc3ccccc3c3ccccc23)C[C@@H]2N(C(=O)NCCCC(F)(F)F)CCC(=O)N12 | ATP-dependent Clp protease proteolytic subunit, mitochondrial (CLPP, Homo sapiens, UniProt Q16740) | activator | – | – | > 100 µM
CCCCCCCC/C=C\CCCCCCCC(=O)NCCO | Transient receptor potential cation channel subfamily V member 1 (Trpv1, Mus musculus, UniProt Q704Y3, T557S) | ion current, agonist, whole-cell patch clamp | – | 24 °C, T557S, +80 mV | 0.53 ± 0.26 µM
CNc1ncnc2c1ncn2C1OC(CO)C(O)C1O (stereo not drawn) | Adenosine receptor A1 (ADORA1, Homo sapiens, UniProt P30542) | G protein activation, agonist | – | – | 1.1 µM

A few entries again:
SMILES | target | assay | system | setting | EC50
O=C(O)c1ccccc1OCc1ccccc1Br | Ras-related protein Rab-2A (Canis lupus familiaris, UniProt P61105) | GTP binding, flow cytometry bead | – | EDTA buffer, added: 100 nM BODIPY-GTP | 0.251 µM
O=C(NC[C@@H](Cc1ccc(F)cc1)N1CCC(O)(C(F)(F)F)CC1)C1(c2ccc(Cl)cc2)CCCC1 | Transient receptor potential cation channel subfamily A member 1 (TRPA1, Homo sapiens, UniProt O75762, L881I) | – | – | – | 9.3 µM
O=C(O)Cc1ccccc1Nc1c(Cl)cccc1Cl | PLCG2 residues 1-1195 | enzyme activity, activator | lipid vesicles | 15 min preincubation, added: XY-69 substrate 0.5 µM | 51 µM
